Measured values pooled from the literature.
A part holds a random share of what one study measured.

Study 1
Target: Ras GTPase-activating protein-binding protein 1, RRM domain (G3BP1, Homo sapiens, UniProt Q13283)
Chain of UniProt Q13283 (whole entry, looked up): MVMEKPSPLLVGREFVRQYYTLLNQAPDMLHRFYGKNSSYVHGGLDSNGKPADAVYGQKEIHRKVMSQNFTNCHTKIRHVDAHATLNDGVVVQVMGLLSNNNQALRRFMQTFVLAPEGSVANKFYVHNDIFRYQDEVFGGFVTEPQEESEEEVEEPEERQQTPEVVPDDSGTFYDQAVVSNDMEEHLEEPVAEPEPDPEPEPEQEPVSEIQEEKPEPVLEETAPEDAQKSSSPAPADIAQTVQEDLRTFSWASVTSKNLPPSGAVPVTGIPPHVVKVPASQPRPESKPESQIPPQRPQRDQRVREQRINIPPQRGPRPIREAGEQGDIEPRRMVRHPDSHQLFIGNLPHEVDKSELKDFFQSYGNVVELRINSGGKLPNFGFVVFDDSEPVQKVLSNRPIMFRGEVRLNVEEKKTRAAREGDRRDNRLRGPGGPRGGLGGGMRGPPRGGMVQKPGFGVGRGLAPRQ
Technique: RNA Bind-n-Seq
Form: RNA
Matrix: in vitro
Concentration: 1 µM
Setting: whole 134-nt RNA, ends assumed
With: 150 mM KCl
Baseline: input library
Direction: higher = stronger binding
Strand | log2 enrichment
GGGAGUUCUACAGUCCGACGAUCUCAAGUCCUGUGCUACACAUCGUAUGUACCGAAUCGGGGAAGGGGAAGGAAGGGGAAAGUAUUAUGUUACGCCGUUCGGAUCUGCACUUCUGGAAUUCUCGGGUGUCAAGG | 0.35
GGGAGUUCUACAGUCCGACGAUCUAACUUUAGAGGAGGAUCUGAUGUAUAUGGCAGUGGACGUGGAUUUGGGGAUGGCUAUAAUGGGUAUGGAGGAGGACCUGGAGGUGGCAAUGGAAUUCUCGGGUGUCAAGG | -0.814
GGGAGUUCUACAGUCCGACGAUCUGGGAGGUGGAUUUUGUUUAUUUUUUUAGGUCAUUUCCAGGGGUGGGAAUUUUUUUUUAAUAUGUGUCAUGAAUAAAGUUGUUUUUGAAAUGGAAUUCUCGGGUGUCAAGG | 2.09

Study 2
Target: Prothrombin, mature alpha-thrombin (F2, Homo sapiens, UniProt P00734)
Technique: aptamer microarray, sandwich
Form: DNA with 2'F-ANA
Matrix: in vitro
Concentration: 200 nM
Setting: whole 15-mer aptamer, many near background
With: Cy3 exosite-II aptamer, 400 nM
Direction: higher = stronger binding
Strand: GGTTGGTGTGGTTGG
Modification | mean fluorescence intensity [a.u.]
2'F-ANA at 1 4 6 7 8 10 12 15 | 60.3
2'F-ANA at 1 2 4 6 7 8 10 11 12 14 15 | 51
2'F-ANA at 1 2 3 7 8 9 10 11 12 14 15 | 107
2'F-ANA at 2 4 5 6 7 8 9 12 13 14 15 | 92.4
2'F-ANA at 1 6 7 9 10 12 15 | 78.9

Study 3
Target: POU, POU domain (Salpingoeca helianthica)
Technique: Spec-seq
Form: double-stranded DNA, one strand shown
Matrix: in vitro
Concentration: not given
Setting: whole probe, mean of replicates
Baseline: not given
Direction: lower = stronger binding
Constant ends, left off below: GAGTCGTCTCGTCAGCAC … CCGTAGAGCACTCAGGTC
Target sequence (chain): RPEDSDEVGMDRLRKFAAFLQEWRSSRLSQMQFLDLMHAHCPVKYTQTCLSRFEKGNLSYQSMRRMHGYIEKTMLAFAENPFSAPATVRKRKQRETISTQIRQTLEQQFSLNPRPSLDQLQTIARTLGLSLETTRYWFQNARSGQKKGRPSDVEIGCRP
Strand | relative binding energy
AAGTTAAT | -0.14 ln ratio
ATGCAACA | 0.927 ln ratio
CAAATAAT | 0.0512 ln ratio
ATGCTTAG | 1.35 ln ratio
ATGCGTCG | 1.57 ln ratio

Single results of other studies
Substance | target | test | test system | conditions | how to read | endpoint | result
PhoQ, residues 284 288 289 292 302 303 SSTLLI | PhoP, residues 12 14 15 18 19 QWHVF (Escherichia coli, UniProt P23836) | Sort-seq, refers to: YFP reporter | E. coli | PhoQ-PhoP variant library, with: 10 µM Mg2+ | baseline: high Mg2+ state, higher = stronger signaling | fold induction | 6.13

Excerpt of the above (study 1):
Strand | log2 enrichment
GGGAGUUCUACAGUCCGACGAUCUCAAGUCCUGUGCUACACAUCGUAUGUACCGAAUCGGGGAAGGGGAAGGAAGGGGAAAGUAUUAUGUUACGCCGUUCGGAUCUGCACUUCUGGAAUUCUCGGGUGUCAAGG | 0.35
